# Experimental data collected from several papers.
# Parts stem from different laboratories: compare values within a part only. Substitutions count along the parent as printed.

# Study 1 — target: CCNB1, cyclin fold, Cln2 fusion (human); method: yeast growth competition, sequencing; sample: yeast; notes: weak parent motif; reference: not given; reading: higher = stronger binding; starting sequence: viral docking peptide; PTARRRLLHDLDT
Change,normalised enrichment score
L8A,-0.283
R5K,0.0738
R4A,-0.0595
P1A,0.575
R6A,1.31
H9A,0.867
R5K H9F,1.41
D12A,-0.00111

# Study 2 — observed: binding; method: phage display NGS; form: peptide; tested at: concentration not given; notes: panning round 4; reference: input library
# Target: UDP-N-acetylglucosamine--peptide N-acetylglucosaminyltransferase 110 kDa subunit (OGT, Homo sapiens, UniProt O15294)
# Sequence of UniProt O15294 (whole entry, looked up): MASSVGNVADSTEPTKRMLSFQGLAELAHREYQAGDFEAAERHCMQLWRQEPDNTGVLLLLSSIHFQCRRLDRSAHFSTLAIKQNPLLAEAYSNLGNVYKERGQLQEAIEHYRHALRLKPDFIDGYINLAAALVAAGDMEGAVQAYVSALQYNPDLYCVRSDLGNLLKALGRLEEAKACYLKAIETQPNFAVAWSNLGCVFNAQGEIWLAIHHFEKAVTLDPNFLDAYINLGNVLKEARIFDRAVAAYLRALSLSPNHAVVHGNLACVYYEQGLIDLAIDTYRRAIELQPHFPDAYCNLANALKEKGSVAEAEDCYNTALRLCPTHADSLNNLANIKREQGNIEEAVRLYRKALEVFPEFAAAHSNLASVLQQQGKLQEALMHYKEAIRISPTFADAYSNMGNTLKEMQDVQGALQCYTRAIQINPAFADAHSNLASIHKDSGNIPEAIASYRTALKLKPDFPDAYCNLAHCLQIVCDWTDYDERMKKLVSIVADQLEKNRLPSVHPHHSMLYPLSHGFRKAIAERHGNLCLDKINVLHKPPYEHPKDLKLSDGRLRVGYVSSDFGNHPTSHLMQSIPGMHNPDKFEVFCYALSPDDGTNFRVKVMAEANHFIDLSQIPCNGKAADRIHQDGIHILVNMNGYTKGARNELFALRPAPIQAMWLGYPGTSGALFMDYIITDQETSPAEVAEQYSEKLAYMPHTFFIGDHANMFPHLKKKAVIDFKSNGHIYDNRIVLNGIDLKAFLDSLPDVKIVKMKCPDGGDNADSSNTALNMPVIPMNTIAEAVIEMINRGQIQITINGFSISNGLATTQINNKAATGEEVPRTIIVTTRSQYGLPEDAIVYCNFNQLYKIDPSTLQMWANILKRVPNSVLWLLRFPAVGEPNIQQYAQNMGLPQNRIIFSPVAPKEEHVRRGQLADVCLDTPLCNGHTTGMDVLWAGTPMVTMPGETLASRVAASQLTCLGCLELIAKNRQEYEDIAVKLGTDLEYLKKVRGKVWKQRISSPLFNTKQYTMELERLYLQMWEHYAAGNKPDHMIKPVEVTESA
Sequence,enrichment fold change
FSEYQPQYQISYNKF,1.96
DMMAFYPKYSIAYSR,1.76
APQQYLPAYQIHYNK,1.67
GPRNLIPKYQIQYTY,1.83
NKYQPQYQILYAANR,1.56
DYTRYDPKYQIRYFR,2.77
NSPFAPKYEITTAWH,1.51
QSNMGYFMPKYRINY,1.85

# Study 3 — target: vanadate, free oxyanion; method: microfluidic competitive inhibition; sample: in vitro, cell-free expressed; tested at: not given; reading: lower = stronger binding
# Notes: derived from inhibition constants, unchanged parent 676 nM
# Starting sequence: PafA, mature enzyme, eGFP fusion (Elizabethkingia meningoseptica, UniProt Q9KJX5); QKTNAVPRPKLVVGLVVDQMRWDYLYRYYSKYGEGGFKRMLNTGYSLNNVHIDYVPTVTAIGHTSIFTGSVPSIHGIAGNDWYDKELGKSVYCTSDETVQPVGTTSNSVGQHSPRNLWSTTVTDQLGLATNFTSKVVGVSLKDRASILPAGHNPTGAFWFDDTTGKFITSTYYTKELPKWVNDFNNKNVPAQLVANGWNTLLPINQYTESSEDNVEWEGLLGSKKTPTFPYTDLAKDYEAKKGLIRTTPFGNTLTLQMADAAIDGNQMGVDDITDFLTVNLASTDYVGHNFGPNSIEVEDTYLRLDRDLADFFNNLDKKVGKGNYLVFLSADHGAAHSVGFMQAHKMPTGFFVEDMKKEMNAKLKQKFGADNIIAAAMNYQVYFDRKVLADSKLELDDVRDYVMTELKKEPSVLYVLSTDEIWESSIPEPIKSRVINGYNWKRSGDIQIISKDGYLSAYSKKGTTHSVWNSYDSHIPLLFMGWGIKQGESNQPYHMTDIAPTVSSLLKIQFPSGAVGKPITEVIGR
Change,oxyanion analog dissociation constant [nM]
T497V,766
F67V,402
Y455G,539
V270G,680
G62A,165
L25V,710
Y472G,356
E209V,712

# Other studies, line by line
Compound,target,test,conditions,quantity,result
CCS(=O)(=O)c1cc2cc(C[C@](O)(CC(C)(C)c3ccc(F)cc3C(N)=O)C(F)(F)F)[nH]c2cn1,"Calcium-dependent protein kinase 1 (CDPK1, Plasmodium falciparum, UniProt P62344)","cell-free assay, competition with immobilised ligand",1 µM,remaining binding,100%

# Repeated from above (study 1):
Change,normalised enrichment score
P1A,0.575
R6A,1.31
H9A,0.867
